{"data": "Measurements collected from several papers", "note": "A part holds a random share of what one study measured."}
{"data": "Study 1", "target": "Histone acetyltransferase KAT6A, winged helix 2, GST fusion (KAT6A, Homo sapiens, UniProt Q92794, residues 85-181)", "method": "protein binding microarray", "form": "double-stranded DNA, one strand shown", "sample": "in vitro", "concentration": "not given", "setting": "8-mer, flanks averaged, mean of 2 arrays, mostly near background", "baseline": "not given", "direction": "higher = stronger binding", "Construct (chain)": "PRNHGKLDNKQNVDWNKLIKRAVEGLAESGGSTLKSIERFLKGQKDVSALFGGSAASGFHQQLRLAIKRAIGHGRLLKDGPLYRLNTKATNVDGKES"}
{"Strand": "ACATAGCC", "E-score": -0.0309}
{"Strand": "TAACATAA", "E-score": -0.0167}
{"Strand": "AGATGCAA", "E-score": -0.0772}
{"Strand": "CAATATGC", "E-score": -0.139}
{"Strand": "CTAAACAG", "E-score": -0.075}
{"Strand": "GGTCATCA", "E-score": -0.1}
{"Strand": "GATGACCC", "E-score": 0.113}
{"Strand": "TTATCAAA", "E-score": 0.213}
{"Strand": "AAGCACAG", "E-score": 0.187}
{"Strand": "ACACGTTC", "E-score": -0.148}
{"Strand": "AAAAACAC", "E-score": 0.0923}
{"Strand": "CTAATCAA", "E-score": 0.175}
{"Strand": "AGGCAAAC", "E-score": 0.108}
{"Strand": "TGGCCACA", "E-score": 0.009}
{"Strand": "CAAAACTC", "E-score": 0.0311}
{"Strand": "GTCCCGTA", "E-score": -0.09}
{"Strand": "ACTACACG", "E-score": -0.114}
{"Strand": "CATCCGGG", "E-score": 0.253}
{"Strand": "CCCATCTA", "E-score": -0.145}
{"Strand": "AATTGTCG", "E-score": -0.0459}
{"Strand": "ATTCTTGA", "E-score": -0.087}
{"Strand": "CGTCGGCA", "E-score": 0.0575}
{"Strand": "CGCCATCA", "E-score": -0.204}
{"data": "Study 2", "target": "Sal-like protein 4, full length isoform B (SALL4, Homo sapiens, UniProt Q9UJQ4-2, residues 1-616)", "method": "universal PBM", "form": "double-stranded DNA, one strand shown", "sample": "in vitro", "concentration": "not given", "setting": "8-mer, flanks averaged, mean of replicates", "direction": "higher = stronger binding"}
{"Strand": "AAAGGGGA", "E-score": -0.186}
{"Strand": "ACCATAGC", "E-score": -0.0862}
{"Strand": "GACTAAGA", "E-score": -0.0964}
{"Strand": "GCTAAAGA", "E-score": 0.0962}
{"Strand": "ACCCACAT", "E-score": 0.0802}
{"Strand": "GAGCACAA", "E-score": 0.00028}
{"Strand": "AGATAGCA", "E-score": 0.0799}
{"Strand": "CTCTCCAG", "E-score": -0.342}
{"Strand": "GATAAAAC", "E-score": 0.248}
{"Strand": "GATTTAAC", "E-score": 0.187}
{"Strand": "ATACGGAT", "E-score": 0.148}
{"Strand": "AACGAAAA", "E-score": 0.272}
{"Strand": "CGATTAAC", "E-score": 0.013}
{"Strand": "AAGTAAAG", "E-score": 0.147}
{"Strand": "GCCTCCCA", "E-score": -0.256}
{"Strand": "CTACGTAA", "E-score": 0.13}
{"Strand": "CTATCTCC", "E-score": -0.0525}
{"Strand": "CGCCCAAG", "E-score": -0.25}
{"Strand": "GTCGCAAC", "E-score": -0.0786}
{"Strand": "AGAAAAGG", "E-score": 0.102}
{"Strand": "TCATCTCA", "E-score": 0.0539}
{"Strand": "ACAGTCCG", "E-score": -0.0733}
{"Strand": "GCTTAGCA", "E-score": -0.127}
{"data": "Study 3", "target": "Prothrombin, mature alpha-thrombin (F2, Homo sapiens, UniProt P00734)", "method": "aptamer microarray, sandwich", "form": "DNA with 2'F-ANA", "sample": "in vitro", "concentration": "200 nM", "setting": "whole 15-mer aptamer, many near background", "added": "Cy3 exosite-II aptamer, 400 nM", "direction": "higher = stronger binding", "strand": "GGTTGGTGTGGTTGG"}
{"Modification": "2'F-ANA at 3 4 5 9 10 11 14", "mean fluorescence intensity [a.u.]": 53.3}
{"Modification": "2'F-ANA at 3 4 5 8 10 11 12 15", "mean fluorescence intensity [a.u.]": 56.2}
{"Modification": "2'F-ANA at 1 2 3 4 5 7 10 12 14 15", "mean fluorescence intensity [a.u.]": 58.4}
{"Modification": "2'F-ANA at 4 9 10 11 12 14", "mean fluorescence intensity [a.u.]": 63.9}
{"Modification": "2'F-ANA at 1 2 4 5 7 9 10 12 13", "mean fluorescence intensity [a.u.]": 151}
{"Modification": "2'F-ANA at 1 2 4 8 12 14", "mean fluorescence intensity [a.u.]": 65.7}
{"Modification": "2'F-ANA at 1 4 7 8 11 12 14", "mean fluorescence intensity [a.u.]": 65.2}
{"Modification": "2'F-ANA at 1 3 9 11 12 13 14", "mean fluorescence intensity [a.u.]": 127}
{"Modification": "2'F-ANA at 1 2 5 6 10 11 13 15", "mean fluorescence intensity [a.u.]": 96.1}
{"Modification": "2'F-ANA at 1 2 3 5 6 9 14", "mean fluorescence intensity [a.u.]": 63.8}
{"Modification": "2'F-ANA at 3 4 6 7 10", "mean fluorescence intensity [a.u.]": 322}
{"Modification": "2'F-ANA at 2 4 5 6 8 9 10 15", "mean fluorescence intensity [a.u.]": 50.1}
{"Modification": "2'F-ANA at 1 2 5 12", "mean fluorescence intensity [a.u.]": 127}
{"Modification": "2'F-ANA at 1 2 3 7 8 9 11 12 13 15", "mean fluorescence intensity [a.u.]": 313}
{"Modification": "2'F-ANA at 3 4 8 10 13 14 15", "mean fluorescence intensity [a.u.]": 190}
{"Modification": "2'F-ANA at 2 6 7 9 11", "mean fluorescence intensity [a.u.]": 300}
{"Modification": "2'F-ANA at 2 3 4 5 8 11 12", "mean fluorescence intensity [a.u.]": 193}
{"Modification": "2'F-ANA at 1 3 5 11 12 14", "mean fluorescence intensity [a.u.]": 51.4}
{"Modification": "2'F-ANA at 1 2 3 6 7 12 13 15", "mean fluorescence intensity [a.u.]": 339}
{"Modification": "2'F-ANA at 2 5 6 9 10 11 15", "mean fluorescence intensity [a.u.]": 51.6}
{"Modification": "2'F-ANA at 1 2 3 5 6 7 8 13 14 15", "mean fluorescence intensity [a.u.]": 45.1}
{"Modification": "2'F-ANA at 2 3 4 5 10 15", "mean fluorescence intensity [a.u.]": 85.4}
{"Modification": "2'F-ANA at 2 5 10 12 14", "mean fluorescence intensity [a.u.]": 46.7}
{"Modification": "2'F-ANA at 1 2 3 4 5 7 9 10 11 12 13 14 15", "mean fluorescence intensity [a.u.]": 70.5}
{"Modification": "2'F-ANA at 1 2 3 5 6 9 11 12 13", "mean fluorescence intensity [a.u.]": 77.5}
{"data": "Study 4", "target": "RING finger protein unkempt homolog, zinc fingers 1-6, GST-SBP tag (UNK, Homo sapiens, UniProt Q9C0B0, residues 30-357)", "method": "RNA Bind-n-Seq", "form": "RNA", "sample": "in vitro", "concentration": "not given", "setting": "RNA with constant flanks, human and mouse sites, ends assumed", "baseline": "input RNA pool", "direction": "higher = stronger binding", "shared flanks, not repeated": "GGGAGUUCUACAGUCCGACGAUC … CAACAGAGGAUUGAGCAUCA", "Construct (chain)": "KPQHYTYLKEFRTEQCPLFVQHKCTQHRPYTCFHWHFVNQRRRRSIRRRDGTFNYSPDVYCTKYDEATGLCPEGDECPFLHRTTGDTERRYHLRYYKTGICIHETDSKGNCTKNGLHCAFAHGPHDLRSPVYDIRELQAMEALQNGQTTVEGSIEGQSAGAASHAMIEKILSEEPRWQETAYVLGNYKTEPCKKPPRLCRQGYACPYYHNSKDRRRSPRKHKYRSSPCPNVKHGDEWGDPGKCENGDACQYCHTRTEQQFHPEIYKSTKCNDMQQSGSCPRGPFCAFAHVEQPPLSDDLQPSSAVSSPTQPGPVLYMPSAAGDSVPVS"}
{"Strand": "UUGCUAUGCAACUUUUACAGAUUCUGGAACCGAAGAUGUUUCGCUAUGCUCACAAAUUGGAGGUUCAGAGAACAGAUGGAGUACUCAGCCAGCUGUCUCCUCUACCACAUCUCUAUUCUG", "bound/input enrichment [ratio]": 0.0619}
{"Strand": "GAUAUGGGCUAUAAUACAUUAGCCAACUUUCGAAUAGAAAAGAAAAUUGGUCGCGGACAAUUUAGUGAAGUUUAUAGAGCAGCCUGUCUCUUGGAUGGAGUACCAGUAGCUUUAAAAAAA", "bound/input enrichment [ratio]": 2.47}
{"Strand": "GAUACAAAAAGGCUUUCCCGAGAAGAGAAGGGUCGCAGCAGCUGUGGUAGGAAUUUCUGGGUUAGUGGCCUUUCGUCUACAACCAGAGCCACGGAUCUGAAGAACCUGUUUAGCAGAUAU", "bound/input enrichment [ratio]": 0.929}
{"Strand": "CUGUCUGAUAUCAUGGUCUCGCUGGCAAAUGCUUCAACCUUACAGAAUGAUUCCAGUUGGAUAGAAACAAUAAGGAAGUUUGUGACGGAGACCCUUAAAGGUGGCACUAGAUUGAACAGU", "bound/input enrichment [ratio]": 0.314}
{"Strand": "GGAAGUGCUGCAUGGCAGGAACACUUGAAACAGAACAAAACUCUAGUCCACGUUAAACGCUGGUUUGGCUUUCUUGAGGCCCAGCAGGCCUUCCGCUCAGUUGGCACCAAGUGGGAUGUU", "bound/input enrichment [ratio]": 0.3}
{"Strand": "AAAUAUGGUCCCAUUGCCGAUGUGUCUAUUGUAUAUGACCAGCAGUCUAGGCGUUCAAGAGGAUUUGCCUUUGUAUAUUUUGAAAAUGUAGAUGAUGCCAAGGAAGCUAAAGAACGUGCC", "bound/input enrichment [ratio]": 0.38}
{"Strand": "GAACCCUAGCACAAAUUUGCUUUGGGAUUUUCUUUUCUGGAAAAAAAAAAUAAAAGAAAUAGUACAUUGAAAACAAAUGAAUUCUCAACUCCUACGGUUCAUGUAGAGUUUAGAGAAAAU", "bound/input enrichment [ratio]": 6.07}
{"Strand": "UGAAUAUUAUACUUCUUUAUUCACAGUAUCUGUGUCUCCUGCACCCUUUGGUGUUGCAAUUUUAGAUAUGUGAAAGUAGAUGUUAGCAGGGUUCUCUCCCUAUUUAAAAAAAAUACAUUA", "bound/input enrichment [ratio]": 3.04}
{"note": "Excerpt of the above (study 3):"}
{"Modification": "2'F-ANA at 3 4 6 7 10", "mean fluorescence intensity [a.u.]": 322}
{"Modification": "2'F-ANA at 1 2 5 12", "mean fluorescence intensity [a.u.]": 127}
{"Modification": "2'F-ANA at 2 5 6 9 10 11 15", "mean fluorescence intensity [a.u.]": 51.6}
{"Modification": "2'F-ANA at 3 4 8 10 13 14 15", "mean fluorescence intensity [a.u.]": 190}
